{"data": "Published values of several laboratories", "note": "Numbered parts are unrelated; each lists some results of a single study.", "sequence of UniProt Q8IU85 (whole entry, looked up)": "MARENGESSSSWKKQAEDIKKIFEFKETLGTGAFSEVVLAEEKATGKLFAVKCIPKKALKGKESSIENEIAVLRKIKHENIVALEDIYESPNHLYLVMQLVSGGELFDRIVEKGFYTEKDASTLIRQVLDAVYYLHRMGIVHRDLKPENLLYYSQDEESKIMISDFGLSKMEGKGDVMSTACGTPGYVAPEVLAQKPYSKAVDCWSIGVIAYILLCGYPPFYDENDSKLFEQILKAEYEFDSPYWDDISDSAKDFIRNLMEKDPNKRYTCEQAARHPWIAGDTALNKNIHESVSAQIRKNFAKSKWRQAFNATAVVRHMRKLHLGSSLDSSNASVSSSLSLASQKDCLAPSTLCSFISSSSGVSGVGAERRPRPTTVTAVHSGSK", "sequence of UniProt P08922 (whole entry, looked up)": "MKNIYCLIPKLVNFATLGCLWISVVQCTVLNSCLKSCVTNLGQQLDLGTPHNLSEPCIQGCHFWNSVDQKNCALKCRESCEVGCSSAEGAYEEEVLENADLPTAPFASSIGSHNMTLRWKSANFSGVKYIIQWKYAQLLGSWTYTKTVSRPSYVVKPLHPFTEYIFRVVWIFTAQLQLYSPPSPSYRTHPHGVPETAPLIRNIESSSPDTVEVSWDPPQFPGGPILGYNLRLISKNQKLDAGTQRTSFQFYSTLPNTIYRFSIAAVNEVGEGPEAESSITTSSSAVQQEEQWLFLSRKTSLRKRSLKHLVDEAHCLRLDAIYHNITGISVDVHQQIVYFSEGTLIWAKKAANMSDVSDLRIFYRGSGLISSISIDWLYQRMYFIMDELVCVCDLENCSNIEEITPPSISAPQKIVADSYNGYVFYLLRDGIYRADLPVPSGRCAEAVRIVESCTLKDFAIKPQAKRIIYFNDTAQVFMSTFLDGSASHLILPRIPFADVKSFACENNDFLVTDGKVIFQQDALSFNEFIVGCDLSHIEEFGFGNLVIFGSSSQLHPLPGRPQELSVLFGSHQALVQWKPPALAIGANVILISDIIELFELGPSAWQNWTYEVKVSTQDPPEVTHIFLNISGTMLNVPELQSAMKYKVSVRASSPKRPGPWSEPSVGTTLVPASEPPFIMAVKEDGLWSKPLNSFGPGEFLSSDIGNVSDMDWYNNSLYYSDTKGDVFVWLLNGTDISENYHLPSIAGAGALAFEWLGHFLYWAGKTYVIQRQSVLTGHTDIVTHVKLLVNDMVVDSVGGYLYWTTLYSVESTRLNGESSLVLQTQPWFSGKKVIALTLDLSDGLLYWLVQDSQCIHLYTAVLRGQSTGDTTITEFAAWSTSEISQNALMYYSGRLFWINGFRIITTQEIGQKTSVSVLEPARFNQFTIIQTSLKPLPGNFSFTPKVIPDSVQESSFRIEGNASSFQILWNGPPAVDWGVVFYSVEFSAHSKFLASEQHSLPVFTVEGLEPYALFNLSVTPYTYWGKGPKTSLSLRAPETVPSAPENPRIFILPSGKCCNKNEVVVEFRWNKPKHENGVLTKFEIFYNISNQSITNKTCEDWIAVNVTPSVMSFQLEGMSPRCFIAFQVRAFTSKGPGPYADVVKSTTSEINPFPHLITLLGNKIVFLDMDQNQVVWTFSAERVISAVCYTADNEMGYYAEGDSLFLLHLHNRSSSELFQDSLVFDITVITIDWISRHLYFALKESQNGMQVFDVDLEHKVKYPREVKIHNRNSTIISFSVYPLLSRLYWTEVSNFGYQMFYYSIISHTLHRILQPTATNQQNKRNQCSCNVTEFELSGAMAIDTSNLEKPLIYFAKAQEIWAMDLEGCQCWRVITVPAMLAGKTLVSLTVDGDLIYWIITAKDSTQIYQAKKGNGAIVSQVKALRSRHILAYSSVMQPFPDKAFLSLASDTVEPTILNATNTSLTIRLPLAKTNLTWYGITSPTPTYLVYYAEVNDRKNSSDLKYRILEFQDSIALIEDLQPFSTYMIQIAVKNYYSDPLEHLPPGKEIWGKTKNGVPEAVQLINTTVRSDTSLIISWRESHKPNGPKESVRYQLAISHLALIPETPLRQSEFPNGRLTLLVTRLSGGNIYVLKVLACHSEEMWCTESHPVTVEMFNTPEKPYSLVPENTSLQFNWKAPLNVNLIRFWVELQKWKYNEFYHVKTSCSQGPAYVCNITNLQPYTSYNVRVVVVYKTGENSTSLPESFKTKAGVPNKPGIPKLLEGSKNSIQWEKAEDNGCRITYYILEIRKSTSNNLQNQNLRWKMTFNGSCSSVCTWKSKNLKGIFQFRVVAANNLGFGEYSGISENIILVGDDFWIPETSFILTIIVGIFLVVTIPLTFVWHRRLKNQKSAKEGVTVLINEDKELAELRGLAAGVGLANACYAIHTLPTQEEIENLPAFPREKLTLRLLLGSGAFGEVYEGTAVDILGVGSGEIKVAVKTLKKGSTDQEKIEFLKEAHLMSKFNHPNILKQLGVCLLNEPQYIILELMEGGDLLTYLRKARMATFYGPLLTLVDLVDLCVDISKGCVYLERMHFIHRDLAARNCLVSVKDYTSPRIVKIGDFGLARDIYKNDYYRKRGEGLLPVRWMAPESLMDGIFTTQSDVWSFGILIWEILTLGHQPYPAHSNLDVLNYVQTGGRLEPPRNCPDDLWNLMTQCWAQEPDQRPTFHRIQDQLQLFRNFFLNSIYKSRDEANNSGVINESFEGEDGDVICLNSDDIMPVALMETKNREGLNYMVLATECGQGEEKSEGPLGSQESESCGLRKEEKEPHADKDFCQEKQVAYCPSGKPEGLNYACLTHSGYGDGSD", "sequence of UniProt Q96NX5 (whole entry, looked up)": "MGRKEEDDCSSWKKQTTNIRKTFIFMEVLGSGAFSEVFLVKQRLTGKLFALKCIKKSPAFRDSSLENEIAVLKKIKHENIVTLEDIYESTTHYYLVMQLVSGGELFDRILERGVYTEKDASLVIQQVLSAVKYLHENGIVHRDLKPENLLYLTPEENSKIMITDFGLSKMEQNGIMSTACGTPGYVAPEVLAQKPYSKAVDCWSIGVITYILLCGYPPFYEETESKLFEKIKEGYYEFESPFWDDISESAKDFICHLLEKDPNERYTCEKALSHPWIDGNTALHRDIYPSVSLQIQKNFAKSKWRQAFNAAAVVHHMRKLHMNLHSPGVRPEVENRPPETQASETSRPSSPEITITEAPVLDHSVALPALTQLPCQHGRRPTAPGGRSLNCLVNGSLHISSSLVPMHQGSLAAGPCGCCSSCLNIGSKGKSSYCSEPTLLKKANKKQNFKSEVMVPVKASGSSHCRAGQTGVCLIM", "sequence of UniProt P41279 (whole entry, looked up)": "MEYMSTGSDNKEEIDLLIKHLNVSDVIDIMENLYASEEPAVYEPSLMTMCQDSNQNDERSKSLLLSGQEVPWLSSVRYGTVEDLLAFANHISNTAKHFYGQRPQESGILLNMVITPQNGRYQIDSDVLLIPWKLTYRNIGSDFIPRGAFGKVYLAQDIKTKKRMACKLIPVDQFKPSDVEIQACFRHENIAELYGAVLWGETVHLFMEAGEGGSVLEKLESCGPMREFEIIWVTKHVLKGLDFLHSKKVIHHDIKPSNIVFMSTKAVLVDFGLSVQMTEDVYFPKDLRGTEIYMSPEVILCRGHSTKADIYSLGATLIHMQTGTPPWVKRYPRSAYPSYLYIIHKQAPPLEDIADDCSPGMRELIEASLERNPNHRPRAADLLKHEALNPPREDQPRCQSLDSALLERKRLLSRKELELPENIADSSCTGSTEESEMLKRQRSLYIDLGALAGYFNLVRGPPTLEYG", "sequence of UniProt Q16288 (whole entry, looked up)": "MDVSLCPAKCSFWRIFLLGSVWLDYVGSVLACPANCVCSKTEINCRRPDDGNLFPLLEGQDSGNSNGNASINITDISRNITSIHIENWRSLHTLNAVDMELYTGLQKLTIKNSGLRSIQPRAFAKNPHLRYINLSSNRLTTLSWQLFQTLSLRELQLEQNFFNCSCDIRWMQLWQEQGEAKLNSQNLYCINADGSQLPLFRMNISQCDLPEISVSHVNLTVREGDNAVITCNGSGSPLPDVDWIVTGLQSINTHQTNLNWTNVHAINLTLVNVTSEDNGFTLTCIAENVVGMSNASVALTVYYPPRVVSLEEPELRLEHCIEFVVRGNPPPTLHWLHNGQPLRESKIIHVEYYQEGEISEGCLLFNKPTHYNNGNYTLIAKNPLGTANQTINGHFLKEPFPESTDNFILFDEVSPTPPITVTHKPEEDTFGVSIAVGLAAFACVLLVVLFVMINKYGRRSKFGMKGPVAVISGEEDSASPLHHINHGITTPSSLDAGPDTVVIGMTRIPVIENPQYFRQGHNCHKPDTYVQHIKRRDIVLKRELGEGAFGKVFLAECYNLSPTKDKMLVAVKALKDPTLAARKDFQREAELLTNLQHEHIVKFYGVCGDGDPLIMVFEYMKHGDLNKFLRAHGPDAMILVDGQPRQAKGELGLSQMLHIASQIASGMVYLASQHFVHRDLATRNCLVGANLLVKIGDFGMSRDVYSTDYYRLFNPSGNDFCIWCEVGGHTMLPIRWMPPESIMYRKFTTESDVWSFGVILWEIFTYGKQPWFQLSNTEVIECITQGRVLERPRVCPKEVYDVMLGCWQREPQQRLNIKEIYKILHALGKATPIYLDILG"}
{"data": "Study 1", "cell line": "HEK-293T-ACE2-TMPRSS2", "technique": "cell count", "tested at": "concentration not given"}
{"SMILES": "O=[N+]([O-])c1ccc(S(=O)(=O)c2ccccc2)nc1S(=O)(=O)c1ccccc1", "viability [%]": 67}
{"SMILES": "CCCCC(=O)NC(c1ccc(OC)c(OC)c1)c1ccc2cccnc2c1O (stereo not drawn)", "viability [%]": 73}
{"SMILES": "CN(CC(=O)N1CCN2C(=O)CN(C)C(=O)C2C1)Cc1ccc(F)cc1 (stereo not drawn)", "viability [%]": 67}
{"SMILES": "O=C(Oc1cccc2c1C(=O)C=CC2=O)c1ccccc1", "viability [%]": 69}
{"SMILES": "CN1/C(=C/C=C/c2ccc3ccccc3[n+]2C)C=Cc2ccccc21", "viability [%]": 66}
{"SMILES": "CCCS(=O)(=O)c1ncc(Cl)c(C(=O)N(Cc2ccccc2)c2ccccn2)n1", "viability [%]": 87}
{"SMILES": "c1nc(Sc2nnc(NCC3CCCO3)s2)c2ccsc2n1 (stereo not drawn)", "viability [%]": 67}
{"data": "Study 2", "SMILES": "CCn1cnc2c(Nc3cccc(Cl)c3)nc(N[C@H]3CCCC[C@H]3N)nc21", "effect on": "enzyme activity", "action": "inhibitor", "tested at": "0.5 µM", "relative to": "control"}
{"target": "Calcium/calmodulin-dependent protein kinase type 1D (CAMK1D, Homo sapiens, UniProt Q8IU85)", "remaining activity [%]": 96.7}
{"target": "NT-3 growth factor receptor (NTRK3, Homo sapiens, UniProt Q16288)", "remaining activity [%]": 23.4}
{"target": "Calcium/calmodulin-dependent protein kinase type 1G (CAMK1G, Homo sapiens, UniProt Q96NX5)", "remaining activity [%]": 94.1}
{"target": "Mitogen-activated protein kinase kinase kinase 8 (MAP3K8, Homo sapiens, UniProt P41279)", "remaining activity [%]": 93.6}
{"target": "Proto-oncogene tyrosine-protein kinase ROS (ROS1, Homo sapiens, UniProt P08922)", "remaining activity [%]": 90.7}
{"data": "Study 3", "cell line": "A-375", "tested at": "100 µM", "time": "36 h"}
{"SMILES": "O=P1(NCCCl)OCCCN1CCCl (stereo not drawn)", "viability [%]": 112}
{"SMILES": "ClCC1C(CCl)[C@@]2(Cl)C(Cl)=C(Cl)[C@]1(Cl)C2(Cl)Cl (stereo partly drawn)", "viability [%]": 0.058}
{"SMILES": "C=C1C[C@@H]2[C@H](CC[C@]3(C)C(=O)CC[C@@H]23)[C@@]2(C)C=CC(=O)C=C12", "viability [%]": 47.8}
{"SMILES": "CC(C)OC(=O)[C@H](C)N[P@](=O)(CO[C@H](C)Cn1cnc2c(N)ncnc21)Oc1ccccc1", "viability [%]": 101}
{"SMILES": "CN1C(=O)CCS(=O)(=O)C1c1ccc(Cl)cc1 (stereo not drawn)", "viability [%]": 88.3}
{"SMILES": "Clc1ccc(C(OCCN2CCCCC2)c2ccccc2)cc1 (stereo not drawn)", "viability [%]": -1.89}
{"SMILES": "Cc1ccc(-n2nccn2)c(C(=O)N2CCN(c3nc4cc(Cl)ccc4o3)CC[C@H]2C)c1", "viability [%]": 5.32}
{"SMILES": "CC(C)c1cccc(C(C)C)c1O", "viability [%]": 44.7}
{"data": "Further values, each from its own experiment"}
{"SMILES": "CCN(CCO)CCCOc1ccc2c(Nc3cc(CC(=O)Nc4cccc(F)c4)[nH]n3)ncnc2c1", "cell line": "HuT78", "technique": "CCK-8", "tested at": "2 µM", "time": "48 h", "relative to": "untreated", "quantity": "viability", "value": "114%"}
